Published values from different studies.
Lines come from different studies, so protocols differ. “And” joins repeats or separate records; there may be more than shown. ± gives the spread as reported.
IDE: Insulin-degrading enzyme (IDE, Homo sapiens, UniProt P14735)

Nc1cc(Cl)ccc1C(=O)NCCCCNc1ccnc2cc(Cl)ccc12 — inhibition (Chromobacterium violaceum; violacein production; ATCC 31532; 10 µM, quorum sensing reporter): 21.2%
COC[C@H]1O[C@@H]2O[C@@H]3[C@@H](OC)[C@@H](OC)[C@@H](O[C@@H]4[C@@H](OC)[C@@H](OC)[C@@H](O[C@@H]5[C@@H](OC)[C@@H](OC)[C@@H](O[C@@H]6[C@@H](OC)[C@@H](OC)[C@@H](O[C@@H]7[C@@H](OC)[C@@H](OC)[C@@H](O[C@@H]1[C@@H](OC)[C@H]2OC)O[C@@H]7COC)O[C@@H]6COC)O[C@@H]5COC)O[C@@H]4COC)O[C@@H]3COC — inhibition (Escherichia coli; LuxR reporter, antagonist; DH5α sensor strain; 10 µM, with: OHHL 200 nM): -4 ± 1%
Nc1ccccc1C(=O)NCCCCNc1ccnc2ccccc12 — inhibition (Chromobacterium violaceum; violacein production; ATCC 31532; 400 µM, quorum sensing reporter): 34.9%
Cc1nc(C)c(Cl)c(O)c1Cl — inhibition (Trichomonas gallinae; CCK-8; 20 µM, 24 h): 50.2%
Nc1ccc(Br)cc1C(=O)NCCCCNc1ccnc2cc(Cl)ccc12 — inhibition (Chromobacterium violaceum; violacein production; ATCC 31532; 40 µM, 2% DMSO): 44%
Cc1cc(OC(C)C)ccc1C(=O)C(C)(C)NC(=O)c1sccc1C — inhibition (Botrytis cinerea; conidial germination; B05.10; 3 µg/mL): 94 ± 6%
CC(C)NC(=O)N1CCCCN2[C@@H](CO)[C@H](c3ccc(C#Cc4ccccc4F)cc3)[C@@H]2C1 — EC50 (IDE; enzyme activity, inhibitor, fluorogenic kinetic; with: Mca-RPPGFSAFK(Dnp)-OH substrate): 1.2 µM
CSc1ccc(OCc2ncc([N+](=O)[O-])n2C)cc1 — inhibition (Trichomonas gallinae; CCK-8; 20 µM, 24 h): > 70% and 98.7%
O=C(CC1CC1)N1CC(=O)N2[C@H](C1)[C@H](c1ccc(C#Cc3ccccc3)cc1)[C@@H]2CO — EC50 (IDE; enzyme activity, inhibitor, fluorogenic kinetic; with: Mca-RPPGFSAFK(Dnp)-OH substrate): 7.1 µM
O=C(CC1NCCCC1O)Cn1cnc2cc(Br)c(Cl)cc2c1=O (centres unmarked) — inhibition (Trichomonas gallinae; CCK-8; 20 µM, 24 h): 94%
O=C(Nc1cccc(C2=NCCN2)c1)Nc1cccc(C2=NCCN2)c1 — inhibition (Theileria equi; parasite growth, flow cytometry; horse erythrocytes, USDA Florida strain; 0.0215 µM, 72 h): 16.9%

Some of these lines once more:
O=C(CC1CC1)N1CC(=O)N2[C@H](C1)[C@H](c1ccc(C#Cc3ccccc3)cc1)[C@@H]2CO — EC50 (IDE; enzyme activity, inhibitor, fluorogenic kinetic; with: Mca-RPPGFSAFK(Dnp)-OH substrate): 7.1 µM
O=C(CC1NCCCC1O)Cn1cnc2cc(Br)c(Cl)cc2c1=O (centres unmarked) — inhibition (Trichomonas gallinae; CCK-8; 20 µM, 24 h): 94%
